# Experimental data pooled from the literature.
# Compare with care: the assays were run in different laboratories. Numbers after ± are the reported error.
SMILES,cell line,assay,system,conditions,scale,quantity,result
N=C(N)Nc1ccc(-c2nc3ccc(-c4ccc5nc(-c6ccc(NC(=N)N)cc6)[nH]c5c4)cc3[nH]2)cc1,wild-type myotubes,,,concentration not given,,MBNL1 exon 5 inclusion,no effect
Cc1cc(C)c(-n2ccn(-c3c(C)cc(C)cc3C)c2=[Se])c(C)c1.[Cl][Ag],A2780 ADR,MTT,,,relative to: A2780 ADR over A2780,resistance factor,0.8
C[C@@H](O)[C@H](NC(=O)[C@H](CCCCN)NC(=O)CCCC(=O)O)C(=O)NCC(=O)N[C@@H](CC(=O)O)C(=O)N[C@@H](CCC(=O)O)C(=O)N[C@@H](CCCCN)C(=O)N[C@@H](CCCCN)C(=O)NCC(=O)NCC(=O)N[C@@H](Cc1ccc(O)cc1)C(=O)NCC(=O)N[C@@H](CCCNC(=N)N)C(=O)N[C@@H](CCCCN)C(=O)N[C@@H](CCCCN)C(=O)N[C@@H](CCCNC(=N)N)C(=O)N[C@@H](CCCNC(=N)N)C(=O)N[C@@H](CCC(N)=O)C(=O)N[C@@H](CCCNC(=N)N)C(=O)N[C@@H](CCCNC(=N)N)C(=O)N[C@@H](CCCNC(=N)N)C(N)=O,Huh-7,"apoptosis, flow cytometry",,"40 µM, 16 h",,caspase-3 positive cells,2.53%
CC[C@H](C)[C@H](NC(=O)CNC(=O)[C@H](CC(C)C)NC(=O)CNC(=O)[C@H](CCCCN)NC(=O)[C@H](CCC(=O)O)NC(=O)[C@H](CCCCN)NC(=O)[C@@H](NC(=O)[C@H](Cc1ccccc1)NC(=O)[C@H](CC(=O)O)NC(=O)[C@H](CCCCN)NC(=O)[C@H](C)NC(=O)[C@H](CCCCN)NC(=O)[C@H](CC(N)=O)NC(=O)[C@H](CC(C)C)NC(=O)[C@H](Cc1c[nH]c2ccccc12)NC(=O)[C@H](CC(=O)O)NC(=O)[C@H](CCCCN)NC(=O)[C@@H](NC(=O)CNC(=O)[C@H](C)N)[C@@H](C)O)[C@@H](C)CC)C(=O)N[C@@H](CC(C)C)C(=O)N[C@@H](CO)C(=O)N[C@@H](C)C(=O)N[C@@H](C)C(=O)N[C@@H](C)C(=O)N[C@@H](CC(N)=O)C(=O)N[C@@H](C)C(=O)N[C@@H](C)C(=O)N[C@H](C(=O)N[C@@H](CC(N)=O)C(=O)O)[C@@H](C)CC,HEK293 cells,"intracellular calcium, FLIPR",,0.1% BSA,,EC50,> 100 µM
CNC(=O)c1cc(Oc2ccc(NC(=O)c3ccc(-c4cccc(COC(=O)CCC(=O)OC5OC6OC7(C)CCC8C(C)CCC(C5C)C68OO7)c4)cn3)cc2)ccn1 (stereo not shown),Huh-7,annexin V/PI flow cytometry,,"5 µM, 24 h",,apoptotic cells,17.2%
CCCc1cc(OC)c2c(c1)OCO2,A-375,"cell growth or viability, MTT",,72 h,,GI50,116 µM
CSCC[C@H](NC(=O)[C@H](CCC(N)=O)NC(=O)[C@H](CCCCN)NC(=O)[C@H](CCCNC(=N)N)NC(=O)[C@H](Cc1ccc(O)cc1)NC(=O)[C@H](CCCNC(=N)N)NC(=O)[C@H](CO)NC(=O)[C@H](Cc1ccc(O)cc1)NC(=O)[C@H](CO)NC(=O)[C@H](CC(=O)O)NC(=O)[C@@H](NC(=O)[C@@H](N)Cc1ccccc1)[C@@H](C)O)C(=O)N[C@@H](C)C(=O)N[C@H](C(=O)N[C@@H](CCCCN)C(=O)N[C@@H](CCCCN)C(=O)N[C@@H](Cc1ccc(O)cc1)C(=O)N[C@@H](CC(C)C)C(=O)N[C@@H](C)C(=O)N[C@@H](C)C(=O)N[C@H](C(=O)N[C@@H](CC(C)C)C(=O)NCC(=O)N[C@@H](CCCCN)C(=O)N[C@@H](CCCNC(=N)N)C(=O)N[C@@H](Cc1ccc(O)cc1)C(=O)N[C@@H](CCCCN)C(=O)N[C@@H](CCC(N)=O)C(=O)N[C@@H](CCCNC(=N)N)C(=O)N[C@H](C(=O)N[C@@H](CCCCN)C(=O)N[C@@H](CC(N)=O)C(=O)N[C@@H](CCCCN)C(N)=O)C(C)C)C(C)C)C(C)C,differentiated PC-12,"antagonist, item: phospho-ERK",,"1 µM, together with: CART 55-102 or 61-102 0.3 µM",,CART-induced ERK activation,inhibited
CC/C=C\C/C=C\C/C=C\C/C=C\C/C=C\C/C=C\CCC(=O)Nc1ccn(C2OC(CO)C(O)C2(F)F)c(=O)n1 (stereo not shown),ACHN,NCI60 screen,,,,CC50,39.4 µM
CN(C)c1ccc(/C=C2\Oc3cc(O)ccc3C2=O)cc1,PC-9 ERO1α knockout,"cell viability, MTT",,72 h,relative to: parental PC-9 cells,fold resistance,2 to 3 fold
CC(C)[C@@H](C)/C=C/[C@@H](C)[C@H]1CC[C@@H]2[C@]1(C)CC[C@H]1[C@]23C=C[C@]2(C[C@@H](OC(=O)CCCC(=O)O)CC[C@]12C)OO3,HMEC,"cell viability, CellTiter-Glo",,,,EC50,> 20 µM
CC[C@H](C)[C@H](NC(=O)[C@H](Cc1ccccc1)NC(=O)[C@H](CC(=O)O)NC(=O)[C@H](CCCCN)NC(=O)[C@H](C)NC(=O)[C@H](CCCCN)NC(=O)[C@H](CC(N)=O)NC(=O)[C@H](CC(C)C)NC(=O)[C@H](Cc1c[nH]c2ccccc12)NC(=O)[C@H](CCC(=O)O)NC(=O)[C@H](CCCCN)NC(=O)[C@@H](NC(=O)CNC(=O)[C@H](C)N)[C@@H](C)O)C(=O)N[C@@H](CCCCN)C(=O)N[C@@H](CCC(=O)O)C(=O)N[C@@H](CCCCN)C(=O)NCC(=O)N[C@@H](CC(C)C)C(=O)N[C@@H](CCC(=O)O)C(=O)N[C@@H](CCSC)C(=O)N[C@@H](CC(C)C)C(=O)N[C@@H](CO)C(=O)N[C@@H](C)C(=O)N[C@@H](C)C(=O)N[C@@H](C)C(=O)N[C@@H](CC(N)=O)C(=O)N[C@@H](C)C(=O)N[C@@H](C)C(=O)N[C@@H](CC(C)C)C(=O)N[C@@H](CC(N)=O)C(=O)O,HEK293 cells,"intracellular calcium, FLIPR",,0.1% BSA,,EC50,> 100 µM
CC(C)CC(O)(CC(C)C)c1cn(C(=O)N2CCCC2)nn1,mouse T-cells,"N-terminal labeled proteins, N-terminal enrichment proteomics, item: SERF2",,"1 nM, 6 h",relative to: DMSO,SILAC ratio,2.66 ± 0.15
COc1cc(C)c(OC)c2c1OCO2,T47D,"cell growth or viability, MTT",,72 h,,GI50,> 250 µM
N=C(N)NCCC[C@H](N)C(=O)NCC(=O)N[C@@H](CC(=O)O)C(=O)O,NIH 3T3 fibroblasts,,peptide-functionalised PEG-glass,"concentration not given, 4 h",,cell perimeter,297 ± 116 µm
Cc1ccc(Nc2ncc3c(n2)N(C)C(=O)N(c2cc(NC(=O)c4cc(-n5cnc(C)c5)cc(C(F)(F)F)c4)ccc2C)C3)cn1,Hep3B,"cell growth or viability, ATP luminescence",,72 h,,GI50,0.153 µM
CC(C)=CCC/C(C)=C/C[P+](c1ccccc1)(c1ccccc1)c1ccccc1,DU-145,"cell growth or viability, MTT",,72 h,,GI50,0.932 µM
CC(C)[C@]12O[C@H]1[C@@H]1O[C@]13[C@]1(O[C@H]1C[C@H]1c4c(C(=O)c5ccccc5)oc(OC(=O)c5ccccc5)c4CC[C@@]13C)[C@@H]2O,MV4-11,cell viability,,48 h,relative to: compound over triptolide,IC50 ratio,2.1
CCC[P+](c1ccccc1)(c1ccccc1)c1ccccc1,T47D,cell growth or viability,,72 h,,GI50,3.45 µM
CC[C@H](C)[C@H](NC(=O)[C@H](CCC(=O)O)NC(=O)CNC(=O)[C@@H](NC(=O)[C@H](CC(C)C)NC(=O)[C@H](CC(C)C)NC(=O)[C@H](CC(C)C)NC(=O)[C@H](CC(C)C)NC(=O)[C@H](CS)NC(=O)[C@H](CO)NC(=O)[C@H](Cc1ccccc1)NC(=O)CNC(=O)[C@H](CCCNC(=N)N)NC(=O)[C@@H]1CCCN1C(=O)[C@H](C)NC(=O)[C@H](CCSC)NC(=O)CNC(=O)CNC(=O)[C@H](Cc1ccccc1)NC(=O)[C@H](CCCCN)NC(=O)[C@H](Cc1c(C)cc(O)cc1C)NC(=O)[C@H](N)CCCNC(=N)N)[C@@H](C)O)C(=O)N[C@@H](CC(=O)O)C(=O)N[C@@H](CC(C)C)C(=O)N1CCC[C@H]1C(=O)N[C@H](C(=O)N[C@@H](CCCCN)C(=O)N[C@@H](CCCNC(=N)N)C(=O)N[C@@H](CCCNC(=N)N)C(=O)N[C@@H](C)C(N)=O)C(C)C,HT-22,"western blot, item: p-STAT3 and STAT3",,"10 µM, 24 h, 37 °C, together with: amyloid beta 42 2 µM",relative to: HNG,p-STAT3/STAT3 ratio,1.3 fold
CN1C(=O)C2(Cc3ccc(CC45SSC(CO)(C(=O)N4C)N(C)C5=O)cc3)SSC1(CO)C(=O)N2C (racemic),MCF7,"microarray, item: CDKN1A",,"600 nM, unit not given, together with: deferoxamine 300 µM",relative to: deferoxamine alone,mRNA level change,-1.4
C=C1C(=O)O[C@H]2[C@H]1CCC(C)=C1[C@H](OC(=O)c3cc(C(F)(F)F)cc(C(F)(F)F)c3)C[C@@](C)(O)[C@@H]12,M9-ENL1 leukaemia cells,annexin V/7-AAD flow cytometry,,"24 h, 5% human plasma",,CC50,7 µM
C[C@H](NC(=O)[C@H](CCCNC(=N)N)NC(=O)[C@H](CCC(=O)O)NC(=O)[C@H](CCCNC(=N)N)NC(=O)[C@H](CCCNC(=N)N)NC(=O)[C@@H](NC(=O)[C@H](CCCNC(=N)N)NC(=O)[C@H](C)NC(=O)[C@H](CCCNC(=N)N)NC(=O)[C@H](CCC(=O)O)NC(=O)[C@@H](N)CCCNC(=N)N)[C@@H](C)O)C(=O)N[C@@H](CCCNC(=N)N)C(=O)N[C@H](C(=O)N[C@@H](CCCNC(=N)N)C(=O)N[C@@H](CCC(=O)O)C(=O)N[C@@H](CCCNC(=N)N)C(=O)N[C@@H](C)C(=O)N[C@@H](CCCNC(=N)N)C(=O)N[C@H](C(=O)N[C@@H](CCCNC(=N)N)C(=O)O)[C@@H](C)O)[C@@H](C)O,A-375,"RT-PCR and western blot, item: VEGF165 mRNA and protein",,concentration not given,,expression level,decreased

# Repeated from above:
SMILES,cell line,assay,system,conditions,scale,quantity,result
COc1cc(C)c(OC)c2c1OCO2,T47D,"cell growth or viability, MTT",,72 h,,GI50,> 250 µM
N=C(N)NCCC[C@H](N)C(=O)NCC(=O)N[C@@H](CC(=O)O)C(=O)O,NIH 3T3 fibroblasts,,peptide-functionalised PEG-glass,"concentration not given, 4 h",,cell perimeter,297 ± 116 µm
